Experimental data pooled from the literature.
Every numbered part comes from another study and shows a few of its results, in no order. Positions count from the first letter of the parent shown.

Sample 1 — technique: RNA Bind-n-Seq; molecule type: RNA; matrix: in vitro; concentration: 200 nM; setting: whole 134-nt RNA, ends assumed; added: 150 mM KCl; baseline: input library; reading: higher = stronger binding
Target: Fragile X messenger ribonucleoprotein 1, C-terminal low-complexity region (Fmr1, Mus musculus, UniProt P35922)
All sequences stand within: GGGAGUUCUACAGUCCGACGAUC … UGGAAUUCUCGGGUGUCAAGG
With `AAGUCCUGUGCUACACAUCGUAUGUACCGAAUCGGGUUUUUUUGGGAGGGAAAGGGAAAGUAUUAUGUUACGCCGUUCGGAUCUGCACUU` the log2 enrichment was 0.486.
For `UAACUUUAGAGGAGGAUCUGAUGGAUAUGGCAGUGGUCGUGGAUUUGGGGAUGGCUAUAAUGGGUAUGGAGGAGGACCUGGAGGUGGCAA`, the log2 enrichment was 0.144.
For `AAUUCUCAUUUCUCGACAUAAAGCCUUGUCUAAAGUGAGAUGUUUUCCAGGUCAUACAUAGGUUUCUCCCUGGGGUAAUUGGAAGUUCUU`, the log2 enrichment was -1.48.
`GUCCUGUGCUACACAUCGUAUGUACCGAAUCGGGGAAAAAGGGAAAAAGGAAAAAGGGGAAAGUAUUAUGUUACGCCGUUCGGAUCUGCA` gave a log2 enrichment of -0.199.
For `UGGGAGGUGGAUUUUGUUUAUUUUUUCAGCUCAUUUCCAGGGGUGGGAAUUUUUUUUUAAUAUGUGUCAUGAAUAAAGUUGUUUUUGAAA`, the log2 enrichment was 0.127.
For `CACAGACAACACGCACCCACACAGACACAGAAGGAAGGGGUUGGGAUGGGGACAGGGUGCACAGCAGGGCGGGGUAGGACCCCAGCCCCU`, the log2 enrichment was 1.25.
With `ACCAUGCAGGUGGGCAUCUUUGGGAAGUGGGGCAAUGGGGGGAUAGGGAGGGGGGUAACACUUUGGGAACAGGUGGUCCCAGGUCGUUUC` the log2 enrichment was 0.72.
The log2 enrichment of `CACAGACAACACGCACCCACACAGACACAGAGGGAAGGGGUUGGGAUGGGGACAGGGUGCACAGCAGGGCGGGGUAGGACCCCAGCCCUU` is reported as 1.35.

Sample 2 — technique: DNA-protein interaction ELISA; molecule type: double-stranded DNA, one strand shown; matrix: in vitro, bacterial lysate; concentration: not given; setting: whole dsDNA probe, crude lysate protein; baseline: highest signal in screen; reading: higher = stronger binding
Target: Probable WRKY transcription factor 33, C-terminal DNA-binding domain (WRKY33, Arabidopsis thaliana, UniProt Q8S8P5, residues 346-449)
Construct (chain): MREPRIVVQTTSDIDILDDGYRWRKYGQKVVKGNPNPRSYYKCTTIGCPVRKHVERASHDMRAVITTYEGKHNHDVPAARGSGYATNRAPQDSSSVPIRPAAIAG
With `AAAAAACTGTGTCCCCGTCCCATCTCAAAA` the relative absorbance was 33.7 % of maximum.
The relative absorbance of `AAAAAATAGGCGTTATGGCTAACACCAAAA` is reported as 30.5 % of maximum.
With `AAAAAAGTCATTATAACCCAAACTCTAAAA` the relative absorbance was 52.6 % of maximum.
With `AAAAAAGGGTCGCTGTGAGCTCATGAAAAA` the relative absorbance was 36.9 % of maximum.
`AAAAAATGTGGTTACGGCCTCGATGAAAAA` gave a relative absorbance of 36.8 % of maximum.
For `AAAAAAACTTTCTATTCTGGATAAGTAAAA`, the relative absorbance was 59.6 % of maximum.
For `AAAAAAGTTCGTGCTTAACCCAGTTTAAAA`, the relative absorbance was 41.1 % of maximum.
`AAAAAAACCGCGTCGCGGCCCGGGAAAA` gave a relative absorbance of 46.5 % of maximum.

Sample 3 — target: CCND3, cyclin fold, Cln2 fusion (human); technique: yeast growth competition, sequencing; matrix: yeast; setting: weak parent motif; baseline: not given; reading: higher = stronger binding
Parent: AKAP12 docking peptide (human); GSPLKKLFTSTGL
For `L4A`, “normalised enrichment score” read 0.0589.
`F8A`: “normalised enrichment score” 0.00547.
Under “normalised enrichment score”, `F8L` is recorded as -0.525.
For `T9A`, “normalised enrichment score” read 0.125.

Mixed results
With `PhoQ, residues 284 288 289 292 302 303 SSCLAV` the fold induction was 3.28 (PhoP, residues 12 14 15 18 19 DLLYY (Escherichia coli, UniProt P23836); Sort-seq, refers to: YFP reporter; E. coli; PhoQ-PhoP variant library, added: 10 µM Mg2+; baseline: high Mg2+ state, higher = stronger signaling).

Repeated from above (sample 2):
With `AAAAAAGGGTCGCTGTGAGCTCATGAAAAA` the relative absorbance was 36.9 % of maximum.
`AAAAAATGTGGTTACGGCCTCGATGAAAAA` gave a relative absorbance of 36.8 % of maximum.
For `AAAAAAACTTTCTATTCTGGATAAGTAAAA`, the relative absorbance was 59.6 % of maximum.
